{"data": "Measurements from different studies", "note": "Parts stem from different laboratories: compare values within a part only."}
{"data": "Set 1", "target": "Casein kinase II subunit alpha' (CSNK2A2, Homo sapiens, UniProt P19784)", "effect on": "enzyme activity", "mode": "inhibitor", "tested at": "0.5 µM", "relative to": "control", "UniProt P19784, sequence (whole entry, looked up)": "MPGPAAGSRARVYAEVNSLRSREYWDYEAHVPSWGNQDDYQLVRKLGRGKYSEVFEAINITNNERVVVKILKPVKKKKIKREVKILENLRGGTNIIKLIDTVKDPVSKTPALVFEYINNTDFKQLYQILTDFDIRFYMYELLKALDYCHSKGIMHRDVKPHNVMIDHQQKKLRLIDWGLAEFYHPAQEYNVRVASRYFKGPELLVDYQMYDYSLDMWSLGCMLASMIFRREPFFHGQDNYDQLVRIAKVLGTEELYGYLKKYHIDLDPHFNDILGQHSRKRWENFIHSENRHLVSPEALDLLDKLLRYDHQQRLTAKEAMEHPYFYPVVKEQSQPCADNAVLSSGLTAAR"}
{"Compound": "c1ccc(-c2n[nH]c3c2oc2ccccc23)cc1", "remaining activity [%]": 85.6}
{"Compound": "Clc1ccc(Nc2nnc(Cc3ccncc3)c3ccccc23)cc1", "remaining activity [%]": 106}
{"Compound": "O=Nc1c(-c2c(O)[nH]c3cc(Br)ccc23)[nH]c2ccccc12", "remaining activity [%]": 63.1}
{"Compound": "O=C1NC(=O)/C(=C/c2ccc3c(c2)OC(F)(F)O3)S1", "remaining activity [%]": 29.9}
{"Compound": "O=C(c1cc2cc(O)ccc2[nH]1)c1cc2cc(O)ccc2[nH]1", "remaining activity [%]": 78.8}
{"Compound": "NC(=O)c1ccc(-c2nc(-c3ccc4c(c3)OCCO4)c(-c3ccccn3)[nH]2)cc1", "remaining activity [%]": 95.9}
{"Compound": "COc1ccc2c(c1)c(C1=C(c3c[nH]c4ccccc34)C(=O)NC1=O)cn2CCCN(C)C", "remaining activity [%]": 99.3}
{"Compound": "O=C1NC(=O)c2c1c1c3ccccc3[nH]c1n1cncc21", "remaining activity [%]": 53.4}
{"Compound": "CCN(CC)CCCCN1c2ccccc2Oc2ccc(Cl)cc21", "remaining activity [%]": 94.6}
{"Compound": "N#Cc1cnc2cnc(NCc3cccnc3)cc2c1Nc1ccc(F)c(Cl)c1", "remaining activity [%]": 75.2}
{"Compound": "COc1cc2c(N3CCN(C(=O)Nc4ccc(OC(C)C)cc4)CC3)ncnc2cc1OCCCN1CCCCC1", "remaining activity [%]": 92.9}
{"Compound": "CC(C)N(CCC(=O)c1ccc2ccccc2c1)Cc1ccccc1", "remaining activity [%]": 95.4}
{"Compound": "CC(C)(C)c1nc2c3cc[nH]c(=O)c3c3cc(F)ccc3c2[nH]1", "remaining activity [%]": 91.5}
{"Compound": "Cc1cc(Nc2cc(N3CCN(C)CC3)nc(Sc3ccc(NC(=O)C4CC4)cc3)n2)[nH]n1", "remaining activity [%]": 120}
{"Compound": "CN(C)S(=O)(=O)c1ccc2c(c1)/C(=C/c1cc3c([nH]1)CCCC3)C(=O)N2", "remaining activity [%]": 92.1}
{"Compound": "O=C1Nc2ccccc2/C1=C\\c1c(Cl)[nH]c2ccccc12", "remaining activity [%]": 94.3}
{"Compound": "O=C(O)/C=C/c1cc(Br)c(Br)c(Br)c1Br", "remaining activity [%]": 17}
{"Compound": "CCCCc1c(-c2ccc(O)cc2)[nH]c2nccnc12", "remaining activity [%]": 94.7}
{"Compound": "O=C1Cc2c([nH]c3ccc(Br)cc23)-c2ccccc2N1", "remaining activity [%]": 74.6}
{"Compound": "COc1ccc(COc2ccc(Cc3cnc(N)nc3N)cc2OC)cc1", "remaining activity [%]": 97.4}
{"Compound": "FC(F)(F)c1ccc(/C=C/c2nc(COc3ccc(CCCCn4ccnn4)cc3)co2)cc1", "remaining activity [%]": 102}
{"Compound": "Nc1nc(Nc2ccc(S(N)(=O)=O)cc2)nn1C(=S)Nc1c(F)cccc1F", "remaining activity [%]": 81.9}
{"Compound": "c1ccc2c(-c3ccncc3)c[nH]c2c1", "remaining activity [%]": 94.9}
{"Compound": "N#CC(c1ccnc(NCCc2cccnc2)n1)c1nc2ccccc2s1 (stereo not drawn)", "remaining activity [%]": 27.1}
{"Compound": "Cc1ccc(S(=O)(=O)/C=C/C#N)cc1", "remaining activity [%]": 97.9}
{"data": "Set 2", "host": "human", "medium": "microsomes or S9", "tested at": "2 µM", "time": "0.5 h"}
{"SMILES": "O=C(O)c1ccc(-c2nc3scc(-c4ccc(F)cc4)c3c(=O)[nH]2)cc1", "remaining compound [%]": "> 99"}
{"SMILES": "Fc1ccccc1-c1cn2c3ccccc3nc2n1CCN1CCCCC1", "remaining compound [%]": 0.228}
{"SMILES": "COc1cc2c(cc1Nc1ncc(Cl)c(Nc3ccc(C4CCN(C(C)=O)CC4)cc3OC)n1)CCCNC2", "remaining compound [%]": "> 100"}
{"SMILES": "N#Cc1ccc2[nH]cc(S(=O)(=O)c3cc(Cl)cc(Cl)c3)c(=O)c2c1", "remaining compound [%]": 49}
{"SMILES": "COc1nc(Nc2ccc3cn[nH]c3c2)nc(-n2ccnc2)n1", "remaining compound [%]": 14.2}
{"SMILES": "Cc1ccc(N2C(=O)C(=N)c3c2sc(C)c3C)cc1", "remaining compound [%]": 48.2}
{"SMILES": "CCC1=NN2C(=NC(C(=O)O)=CC2c2ccc(O)cc2)N1 (stereo not drawn)", "remaining compound [%]": 88.9}
{"SMILES": "Oc1c(Cl)c(Nc2ccccc2)c(O)n1-c1ccccc1", "remaining compound [%]": 57.7}
{"SMILES": "COC(=O)c1coc(C(=O)N(C)c2ccc(C)c(N(C)C)c2)c1", "remaining compound [%]": 2.7}
{"SMILES": "CC1CC(=O)N(Cc2ccc(Br)cc2)c2ccccc2N1 (stereo not drawn)", "remaining compound [%]": 11.6}
{"data": "Set 3", "target": "5-hydroxytryptamine receptor 1B (HTR1B, Homo sapiens, UniProt P28222)", "effect on": "ligand displacement", "technique": "radioligand", "tested at": "10 µM", "UniProt P28222, sequence (whole entry, looked up)": "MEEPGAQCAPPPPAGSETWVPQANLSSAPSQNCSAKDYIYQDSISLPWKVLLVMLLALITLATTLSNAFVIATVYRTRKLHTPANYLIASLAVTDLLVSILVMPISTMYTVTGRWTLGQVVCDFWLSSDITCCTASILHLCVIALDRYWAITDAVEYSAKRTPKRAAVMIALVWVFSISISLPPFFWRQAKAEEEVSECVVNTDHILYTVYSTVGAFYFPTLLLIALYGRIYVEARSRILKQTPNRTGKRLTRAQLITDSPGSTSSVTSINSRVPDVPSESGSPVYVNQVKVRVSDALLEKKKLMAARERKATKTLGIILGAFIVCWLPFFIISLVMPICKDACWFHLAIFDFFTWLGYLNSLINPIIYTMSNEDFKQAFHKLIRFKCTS"}
{"Compound": "CC(=O)N1CCC(c2ccc(C(=O)NC(=N)N)cc2C(F)(F)F)CC1", "inhibition [%]": 14.6}
{"Compound": "CC(=O)C1=C(C)N(c2cccc(C(F)(F)F)c2)C(=O)N[C@@H]1c1ccc(C#N)nc1", "inhibition [%]": 6.69}
{"Compound": "Cc1c[nH]c2nccc(Oc3c(F)cc(Nc4cc(Cl)nc(N)n4)cc3F)c12", "inhibition [%]": -5.28}
{"Compound": "c1ccc(N2CCN(Cc3nc4ccccc4[nH]3)CC2)nc1", "inhibition [%]": 7.3}
{"Compound": "CCOCCn1cc(C(=O)Nc2ccc(-n3nc(-c4cccnc4)cc3C(F)(F)F)cn2)ccc1=O", "inhibition [%]": 18.8}
{"Compound": "CC(=O)c1c(NS(C)(=O)=O)c2cc(-c3ccc(Cl)cc3)c(-c3ccc(Cl)cc3Cl)nc2n(C)c1=O", "inhibition [%]": -2.36}
{"data": "Set 4", "organism": "Sarcocystis neurona", "effect on": "parasite growth", "tested at": "10 µM"}
{"Structure (SMILES)": "Cc1nc2n(c(=O)c1CCN1CCC(c3noc4cc(F)ccc34)CC1)CCCC2", "inhibition [%]": 2.2}
{"Structure (SMILES)": "CCCCC(=O)O[C@H]1CC[C@H]2[C@@H]3CCc4cc(O)ccc4[C@H]3CC[C@]12C", "inhibition [%]": -26.8}
{"Structure (SMILES)": "O=C(CCCN1CC=C(n2c(=O)[nH]c3ccccc32)CC1)c1ccc(F)cc1", "inhibition [%]": 29.6}
{"Structure (SMILES)": "Cc1onc(-c2c(Cl)cccc2Cl)c1C(=O)N[C@@H]1C(=O)N2[C@@H]1SC(C)(C)[C@@H]2C(=O)O", "inhibition [%]": -25.8}
{"Structure (SMILES)": "CN(C)CCC=C1c2ccccc2COc2ccccc21", "inhibition [%]": -23.8}
{"Structure (SMILES)": "C[N+]1(C)CCC(OC(=O)C(O)(c2ccccc2)C2CCCC2)C1.[Br-] (stereo not drawn)", "inhibition [%]": 2}
{"Structure (SMILES)": "Oc1c(Cl)cc(Cl)c(Cl)c1Cc1c(O)c(Cl)cc(Cl)c1Cl", "inhibition [%]": 80}
{"Structure (SMILES)": "Cc1ccc(-c2cc(C(F)(F)F)nn2-c2ccc(S(N)(=O)=O)cc2)cc1", "inhibition [%]": -30.7}
{"Structure (SMILES)": "C[C@]12CCC(=O)C=C1CC[C@@H]1[C@@H]2C(=O)C[C@@]2(C)[C@H]1CC[C@]2(O)C(=O)CO", "inhibition [%]": 3.8}
{"Structure (SMILES)": "CN(C)CCN(Cc1ccccc1)c1ccccn1", "inhibition [%]": -23.5}
{"note": "A few entries again (set 4):"}
{"Structure (SMILES)": "C[C@]12CCC(=O)C=C1CC[C@@H]1[C@@H]2C(=O)C[C@@]2(C)[C@H]1CC[C@]2(O)C(=O)CO", "inhibition [%]": 3.8}
{"Structure (SMILES)": "CN(C)CCC=C1c2ccccc2COc2ccccc21", "inhibition [%]": -23.8}
{"Structure (SMILES)": "CCCCC(=O)O[C@H]1CC[C@H]2[C@@H]3CCc4cc(O)ccc4[C@H]3CC[C@]12C", "inhibition [%]": -26.8}
{"Structure (SMILES)": "C[N+]1(C)CCC(OC(=O)C(O)(c2ccccc2)C2CCCC2)C1.[Br-] (stereo not drawn)", "inhibition [%]": 2}
{"Structure (SMILES)": "Cc1nc2n(c(=O)c1CCN1CCC(c3noc4cc(F)ccc34)CC1)CCCC2", "inhibition [%]": 2.2}
{"Structure (SMILES)": "Oc1c(Cl)cc(Cl)c(Cl)c1Cc1c(O)c(Cl)cc(Cl)c1Cl", "inhibition [%]": 80}
{"Structure (SMILES)": "Cc1onc(-c2c(Cl)cccc2Cl)c1C(=O)N[C@@H]1C(=O)N2[C@@H]1SC(C)(C)[C@@H]2C(=O)O", "inhibition [%]": -25.8}
{"Structure (SMILES)": "O=C(CCCN1CC=C(n2c(=O)[nH]c3ccccc32)CC1)c1ccc(F)cc1", "inhibition [%]": 29.6}
